# Results gathered from unrelated publications.
# Protocols differ between the studies behind these lines. ± gives the spread as reported.
# Technique: steady-state kinetics
# B1: TylM1 H123N (Streptomyces fradiae, UniProt P95748); chain MAHSSATAGPQADYSGEIAELYDLVHQGKGKDYHREAADLAALVRRHSPKAASLLDVACGTGMHLRHLADSFGTVEGLELSADMLAIARRRNPDAVLHHGDMRDFSLGRRFSAVTCMFSSIGNLAGQAELDAALERFAAHVLPDGVVVVEPWWFPENFTPGYVAAGTVEAGGTTVTRVSHSSREGEATRIEVHYLVAGPDRGITHHEESHRITLFTREQYERAFTAAGLSVEFMPGGPSGRGLFTGLPGAKGETR
# B2: onr (Enterobacter cloacae, UniProt P71278); chain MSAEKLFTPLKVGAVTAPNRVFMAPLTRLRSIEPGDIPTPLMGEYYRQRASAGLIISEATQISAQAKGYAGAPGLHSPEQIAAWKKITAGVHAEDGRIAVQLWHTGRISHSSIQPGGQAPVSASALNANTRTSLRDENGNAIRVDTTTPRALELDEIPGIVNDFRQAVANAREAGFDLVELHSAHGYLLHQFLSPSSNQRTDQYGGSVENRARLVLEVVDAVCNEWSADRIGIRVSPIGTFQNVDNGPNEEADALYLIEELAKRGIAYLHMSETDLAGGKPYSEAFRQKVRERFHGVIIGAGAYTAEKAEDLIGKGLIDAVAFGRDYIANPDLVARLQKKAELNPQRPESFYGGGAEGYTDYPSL
# B3: sacB S173T (Priestia megaterium, UniProt D5DC07); chain KGNDSKDFNNSYGISHITRDNMVKIPQQQNSDQFKVPAFDESTIKNIASAKGKNASGNTIDLDVWDSWPLQNADGTVATYHGYQIVFALAGDPKDSNDTSVYLFYKKAGDKSIDSWKNAGRVFKDSDKFVPNDPHLKNQTQEWTGSGTLTKDGKVRLFYTDYSGKQYGKQTLTTAQVNMSQPNDNTLKVDGVEDYKSIFDGDGKIYQTVQQFIDEGGYDTGDNHTLRDPHYIEDNGHKYLVFEANTGTEDGYQGEDSLYNRAYYGGNNPFFQSEKKKLLEGSNKEKASLANGALGIIELNDDYTLKKVMKPLITSNTVTDEIERANIFKKDGKWYLFTDSRGSKMTIDGIGQDDVYMLGYVSNTLTGKYKPLNDTGLVLHMDLDPNDKTFTYSHFAVPQTKGDNVVITSYMTNRGFYEDNHSTFAPSFLVNIDGSKTSVVKDRVLEQGQLTVDED
# B4: oxdC (Bacillus subtilis, UniProt O34714); chain MKKQNDIPQPIRGDKGATVKIPRNIERDRQNPDMLVPPETDHGTVSNMKFSFSDTHNRLEKGGYAREVTVRELPISENLASVNMRLKPGAIRELHWHKEAEWAYMIYGSARVTIVDEKGRSFIDDVGEGDLWYFPSGLPHSIQALEEGAEFLLVFDDGSFSENSTFQLTDWLAHTPKEVIAANFGVTKEEISNLPGKEKYIFENQLPGSLKDDIVEGPNGEVPYPFTYRLLEQEPIESEGGKVYIADSTNFKVSKTIASALVTVEPGAMRELHWHPNTHEWQYYISGKARMTVFASDGHARTFNYQAGDVGYVPFAMGHYVENIGDEPLVFLEIFKDDHYADVSLNQWLAMLPETFVQAHLDLGKDFTDVLSKEKHPVVKKKCSK
# B5: sacB Y196F (Priestia megaterium, UniProt D5DC07); chain KGNDSKDFNNSYGISHITRDNMVKIPQQQNSDQFKVPAFDESTIKNIASAKGKNASGNTIDLDVWDSWPLQNADGTVATYHGYQIVFALAGDPKDSNDTSVYLFYKKAGDKSIDSWKNAGRVFKDSDKFVPNDPHLKNQTQEWSGSGTLTKDGKVRLFYTDYSGKQFGKQTLTTAQVNMSQPNDNTLKVDGVEDYKSIFDGDGKIYQTVQQFIDEGGYDTGDNHTLRDPHYIEDNGHKYLVFEANTGTEDGYQGEDSLYNRAYYGGNNPFFQSEKKKLLEGSNKEKASLANGALGIIELNDDYTLKKVMKPLITSNTVTDEIERANIFKKDGKWYLFTDSRGSKMTIDGIGQDDVYMLGYVSNTLTGKYKPLNDTGLVLHMDLDPNDKTFTYSHFAVPQTKGDNVVITSYMTNRGFYEDNHSTFAPSFLVNIDGSKTSVVKDRVLEQGQLTVDED
# B6: DdmC (Stenotrophomonas maltophilia, UniProt Q5S3I3); chain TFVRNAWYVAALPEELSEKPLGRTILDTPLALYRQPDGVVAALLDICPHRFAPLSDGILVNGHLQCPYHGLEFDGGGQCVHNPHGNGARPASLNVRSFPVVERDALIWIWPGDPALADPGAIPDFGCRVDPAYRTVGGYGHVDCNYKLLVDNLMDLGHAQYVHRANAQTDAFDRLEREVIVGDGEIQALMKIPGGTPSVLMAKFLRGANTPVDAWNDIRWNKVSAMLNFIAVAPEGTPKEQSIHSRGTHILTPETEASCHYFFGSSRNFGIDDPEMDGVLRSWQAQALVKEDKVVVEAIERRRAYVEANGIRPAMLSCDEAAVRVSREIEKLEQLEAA
# B7: Pck1 A467G (Rattus norvegicus, UniProt P07379); chain MPPQLHNGLDFSAKVIQGSLDSLPQEVRKFVEGNAQLCQPEYIHICDGSEEEYGRLLAHMQEEGVIRKLKKYDNCWLALTDPRDVARIESKTVIITQEQRDTVPIPKSGQSQLGRWMSEEDFEKAFNARFPGCMKGRTMYVIPFSMGPLGSPLAKIGIELTDSPYVVASMRIMTRMGTSVLEALGDGEFIKCLHSVGCPLPLKKPLVNNWACNPELTLIAHLPDRREIISFGSGYGGNSLLGKKCFALRIASRLAKEEGWLAEHMLILGITNPEGKKKYLAAAFPSACGKTNLAMMNPTLPGWKVECVGDDIAWMKFDAQGNLRAINPENGFFGVAPGTSVKTNPNAIKTIQKNTIFTNVAETSDGGVYWEGIDEPLAPGVTITSWKNKEWRPQDEEPCAHPNSRFCTPASQCPIIDPAWESPEGVPIEGIIFGGRRPAGVPLVYEALSWQHGVFVGAAMRSEATAGAEHKGKVIMHDPFAMRPFFGYNFGKYLAHWLSMAHRPAAKLPKIFHVNWFRKDKNGKFLWPGFGENSRVLEWMFGRIEGEDSAKLTPIGYVPKEDALNLKGLGDVNVEELFGISKEFWEKEVEEIDKYLEDQVNADLPYEIERELRALKQRISQM
# B8: protein G96D/P94L (Streptomyces coelicolor, UniProt P16544); chain MATQDSEVALVTGATSGIGLEIARRLGKEGLRVFVCARGEEGLRTTLKELREAGVEADGRTCDVRSVPEIEALVAAVVERYGPVDVLVNNAGRLGDGATAELADELWLDVVETNLTGVFRVTKQVLKAGGMLERGTGRIVNIASTGGKQGVVHAAPYSASKHGVVGFTKALGLELARTGITVNAVCPGFVETPMAASVREHYSDIWEVSTEEAFDRITARVPIGRYVQPSEVAEMVAYLIGPGAAAVTAQALNVCGGLGNY
# B9: protein Y93G (Thermus thermophilus, UniProt Q5SKR5); chain MSAPKPFVIGIAGGTASGKTTLAQALARTLGERVALLPMDHYYKDLGHLPLEERLRVNYDHPDAFDLALYLEHAQALLRGLPVEMPVYDFRAGTRSPRRTPVRPAPVVILEGILVLYPKELRDLMDLKVFVDADADERFIRRLKRDVLERGRSLEGVVAQYLEQVKPMHLHFVEPTKRYADVIVPRGGQNPVALEMLAAKALARLARMGAA
# B10: protein (UniProt A0A4Y6I1D9); chain MTLDEKPRKFDGLDIEGVAFAASVTALGAAKPLALGGAGDRGLEINGNYIKFTAIGIYVEDGIIPHLSPKLRGKTVEELCEKELLFEEVISAPFEKLVRVVFLVPLTGIQYSEKVLERISVQSLFTDIKEEHKQQFLEIFKGESFPPRSSVILSFSKEGLKVAFAKGDDVPSKAVGTIEDATFADAVLATIIWKEGVSPAAKVSLAERLSKCL
# Chain of UniProt P19337 (whole entry, looked up): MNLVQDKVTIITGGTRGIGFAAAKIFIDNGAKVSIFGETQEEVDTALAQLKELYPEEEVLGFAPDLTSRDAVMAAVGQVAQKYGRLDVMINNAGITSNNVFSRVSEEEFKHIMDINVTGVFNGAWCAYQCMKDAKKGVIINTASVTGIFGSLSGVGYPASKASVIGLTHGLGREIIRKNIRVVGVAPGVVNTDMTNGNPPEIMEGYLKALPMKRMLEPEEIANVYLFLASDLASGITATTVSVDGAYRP
# Chain of UniProt Q5JTZ9 (whole entry, looked up): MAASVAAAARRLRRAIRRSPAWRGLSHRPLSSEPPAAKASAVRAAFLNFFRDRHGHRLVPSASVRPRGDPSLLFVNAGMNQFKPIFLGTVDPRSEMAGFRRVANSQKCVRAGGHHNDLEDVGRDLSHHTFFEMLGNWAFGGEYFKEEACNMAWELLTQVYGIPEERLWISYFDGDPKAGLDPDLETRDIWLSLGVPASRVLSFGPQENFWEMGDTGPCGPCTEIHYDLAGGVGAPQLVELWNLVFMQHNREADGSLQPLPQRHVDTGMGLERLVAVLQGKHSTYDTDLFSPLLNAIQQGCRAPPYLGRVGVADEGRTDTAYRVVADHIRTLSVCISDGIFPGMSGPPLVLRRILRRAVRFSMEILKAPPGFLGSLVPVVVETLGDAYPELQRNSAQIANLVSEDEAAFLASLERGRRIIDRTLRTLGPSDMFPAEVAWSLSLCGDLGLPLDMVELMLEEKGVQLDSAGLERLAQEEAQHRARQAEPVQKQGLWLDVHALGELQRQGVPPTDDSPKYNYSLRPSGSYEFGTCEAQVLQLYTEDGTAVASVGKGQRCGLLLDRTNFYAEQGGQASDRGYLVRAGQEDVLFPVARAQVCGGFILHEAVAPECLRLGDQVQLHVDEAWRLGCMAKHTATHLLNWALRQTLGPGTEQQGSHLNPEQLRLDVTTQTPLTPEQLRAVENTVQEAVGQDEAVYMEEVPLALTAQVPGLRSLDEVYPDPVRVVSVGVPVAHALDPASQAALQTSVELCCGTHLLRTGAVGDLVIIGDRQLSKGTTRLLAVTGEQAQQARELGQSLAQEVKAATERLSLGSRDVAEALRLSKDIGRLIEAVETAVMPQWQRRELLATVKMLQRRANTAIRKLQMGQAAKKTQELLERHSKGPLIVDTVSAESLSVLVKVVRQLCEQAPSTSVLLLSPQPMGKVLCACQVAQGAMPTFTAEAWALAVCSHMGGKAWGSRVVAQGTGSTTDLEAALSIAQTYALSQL
# Chain of UniProt Q29437 (whole entry, looked up): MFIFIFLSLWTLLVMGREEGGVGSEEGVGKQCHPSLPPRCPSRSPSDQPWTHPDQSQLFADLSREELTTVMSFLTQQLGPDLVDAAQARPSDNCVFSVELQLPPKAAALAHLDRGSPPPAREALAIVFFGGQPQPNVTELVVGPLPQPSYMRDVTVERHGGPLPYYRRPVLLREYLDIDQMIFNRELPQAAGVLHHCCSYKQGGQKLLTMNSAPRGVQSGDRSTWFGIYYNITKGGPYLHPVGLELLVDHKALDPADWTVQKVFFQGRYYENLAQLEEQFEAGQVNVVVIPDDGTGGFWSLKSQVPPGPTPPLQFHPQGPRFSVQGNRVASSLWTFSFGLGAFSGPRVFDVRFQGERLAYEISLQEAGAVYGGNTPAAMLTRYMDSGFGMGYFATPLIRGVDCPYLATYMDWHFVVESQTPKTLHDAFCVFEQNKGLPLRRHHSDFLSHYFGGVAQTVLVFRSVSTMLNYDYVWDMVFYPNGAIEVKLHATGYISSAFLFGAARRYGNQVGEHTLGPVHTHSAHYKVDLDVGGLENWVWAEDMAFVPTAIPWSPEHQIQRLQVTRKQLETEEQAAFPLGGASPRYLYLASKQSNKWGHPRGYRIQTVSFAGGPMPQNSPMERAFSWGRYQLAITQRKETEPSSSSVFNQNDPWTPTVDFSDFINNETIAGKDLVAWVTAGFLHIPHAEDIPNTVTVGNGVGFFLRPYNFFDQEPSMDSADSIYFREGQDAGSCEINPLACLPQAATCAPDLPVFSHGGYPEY
Substance,substrate,pH,temperature,setting,added,kcat/Km
"alanine aminopeptidase (Neisseria meningitidis, UniProt Q9JYV4)",NC(=O)Cc1cc(=O)oc2cc(NC(=O)[C@@H](N)Cc3ccc(Cl)cc3)ccc12,pH 7.5,37 °C,,,34000 ± 1000 M⁻¹ s⁻¹
B1 (TylM1 H123N),Cc1cn([C@H]2C[C@H](O)[C@@H](COP(=O)(O)OP(=O)(O)O[C@H]3O[C@H](C)[C@@H](O)[C@H](N)[C@H]3O)O2)c(=O)[nH]c1=O,,25 °C,,SAM,14 ± 1 M⁻¹ s⁻¹
"AARS2 (Homo sapiens, UniProt Q5JTZ9)",C[C@H](N)C(=O)O,pH 8,37 °C,KCl 20 mM,ATP 4 mM,820 M⁻¹ s⁻¹
B2 (onr),CC1=CC(=O)N(c2ccccc2)C1=O,pH 7,25 °C,"apparent, anaerobic",NADPH 100 µM,2.47e+06 M⁻¹ s⁻¹
B3 (sacB S173T),OC[C@H]1O[C@@](CO)(O[C@H]2O[C@H](CO)[C@@H](O)[C@H](O)[C@H]2O)[C@@H](O)[C@@H]1O,pH 6.6,,,,2580 M⁻¹ s⁻¹
B4 (oxdC),O=C(O)C(=O)O,pH 4.2,25 °C,,,1190 M⁻¹ s⁻¹
B5 (sacB Y196F),OC[C@H]1O[C@@](CO)(O[C@H]2O[C@H](CO)[C@@H](O)[C@H](O)[C@H]2O)[C@@H](O)[C@@H]1O,pH 6.9,,,,9600 M⁻¹ s⁻¹
B6 (DdmC),COc1c(Cl)ccc(Cl)c1C(=O)O,,,apparent,NADH 1 mM,2300 ± 410 M⁻¹ s⁻¹
B7 (Pck1 A467G),C=C(OP(=O)(O)O)C(=O)O,pH 7.5,25 °C,,,15000 M⁻¹ s⁻¹
B8 (protein G96D/P94L),O[C@H]1CCCc2ccccc21,pH 7.4,,"phosphate 400 mM, NADPH 250 µM printed","NADP+, reverse reaction",20 ± 4 M⁻¹ s⁻¹
"BaiA2 (Clostridium scindens, UniProt P19337)",C[C@H](CCC(=O)SCCNC(=O)CCNC(=O)[C@H](O)C(C)(C)COP(=O)(O)OP(=O)(O)OC[C@H]1O[C@@H](n2cnc3c(N)ncnc32)[C@H](O)[C@@H]1OP(=O)(O)O)[C@H]1CC[C@H]2[C@@H]3[C@H](O)C[C@@H]4CC(=O)CC[C@]4(C)[C@H]3C[C@H](O)[C@]12C,pH 8.7,37 °C,,NADH,76800 M⁻¹ s⁻¹
B9 (protein Y93G),Nc1ccn([C@@H]2O[C@H](CO)[C@@H](O)[C@H]2O)c(=O)n1,pH 7.2,25 °C,KCl 100 mM,ATP 100–200 µM,4600 M⁻¹ s⁻¹
"Plasma amine oxidase (Bos taurus, UniProt Q29437)",C[N+](C)(C)CCOc1ccc2cc(CN)ccc2c1,pH 7.2,30 °C,,,3.77e+06 M⁻¹ s⁻¹
B10 (protein),O=C(/C=C/c1ccc(O)cc1)c1c(O)cc(O)cc1O,,,,,1.61e+06 M⁻¹ s⁻¹
